Published values pooled from the literature.
Numbered parts are unrelated; each lists some results of a single study. Several values in a cell are separate wells, animals, samples, runs or records. ± gives the spread as reported.
Sequence of UniProt Q9HAZ1 (whole entry, looked up): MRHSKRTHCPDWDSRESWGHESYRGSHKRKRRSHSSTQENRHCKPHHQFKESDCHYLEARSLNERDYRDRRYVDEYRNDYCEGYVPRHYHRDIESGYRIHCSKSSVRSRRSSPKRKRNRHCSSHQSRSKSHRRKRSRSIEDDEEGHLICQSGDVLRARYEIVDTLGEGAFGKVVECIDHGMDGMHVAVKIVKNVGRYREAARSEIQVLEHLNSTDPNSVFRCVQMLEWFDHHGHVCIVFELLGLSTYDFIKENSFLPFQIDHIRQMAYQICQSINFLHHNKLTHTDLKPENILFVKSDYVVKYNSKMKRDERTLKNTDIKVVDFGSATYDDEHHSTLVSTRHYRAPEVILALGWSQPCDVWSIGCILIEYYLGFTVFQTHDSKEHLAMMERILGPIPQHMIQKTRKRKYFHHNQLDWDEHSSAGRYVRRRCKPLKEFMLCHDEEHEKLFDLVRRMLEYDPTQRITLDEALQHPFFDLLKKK
Sequence of UniProt P51813 (whole entry, looked up): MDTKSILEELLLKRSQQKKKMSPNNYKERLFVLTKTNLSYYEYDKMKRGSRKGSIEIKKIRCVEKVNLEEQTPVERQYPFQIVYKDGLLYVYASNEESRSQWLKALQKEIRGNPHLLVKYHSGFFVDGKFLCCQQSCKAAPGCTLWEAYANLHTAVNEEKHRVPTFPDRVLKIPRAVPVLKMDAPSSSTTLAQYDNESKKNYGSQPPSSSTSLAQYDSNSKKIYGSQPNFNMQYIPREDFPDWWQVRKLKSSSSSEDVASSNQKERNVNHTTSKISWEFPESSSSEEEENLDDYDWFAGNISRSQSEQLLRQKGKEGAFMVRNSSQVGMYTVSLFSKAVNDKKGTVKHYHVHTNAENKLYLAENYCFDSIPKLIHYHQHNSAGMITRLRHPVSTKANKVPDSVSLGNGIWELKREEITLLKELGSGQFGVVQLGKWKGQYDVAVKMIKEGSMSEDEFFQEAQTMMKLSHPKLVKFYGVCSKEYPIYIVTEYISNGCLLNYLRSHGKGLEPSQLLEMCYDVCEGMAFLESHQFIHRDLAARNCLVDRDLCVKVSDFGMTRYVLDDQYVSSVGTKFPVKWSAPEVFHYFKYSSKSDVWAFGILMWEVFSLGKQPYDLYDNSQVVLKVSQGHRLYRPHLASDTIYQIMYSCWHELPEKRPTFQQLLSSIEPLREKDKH
Sequence of UniProt Q8N4C8 (whole entry, looked up): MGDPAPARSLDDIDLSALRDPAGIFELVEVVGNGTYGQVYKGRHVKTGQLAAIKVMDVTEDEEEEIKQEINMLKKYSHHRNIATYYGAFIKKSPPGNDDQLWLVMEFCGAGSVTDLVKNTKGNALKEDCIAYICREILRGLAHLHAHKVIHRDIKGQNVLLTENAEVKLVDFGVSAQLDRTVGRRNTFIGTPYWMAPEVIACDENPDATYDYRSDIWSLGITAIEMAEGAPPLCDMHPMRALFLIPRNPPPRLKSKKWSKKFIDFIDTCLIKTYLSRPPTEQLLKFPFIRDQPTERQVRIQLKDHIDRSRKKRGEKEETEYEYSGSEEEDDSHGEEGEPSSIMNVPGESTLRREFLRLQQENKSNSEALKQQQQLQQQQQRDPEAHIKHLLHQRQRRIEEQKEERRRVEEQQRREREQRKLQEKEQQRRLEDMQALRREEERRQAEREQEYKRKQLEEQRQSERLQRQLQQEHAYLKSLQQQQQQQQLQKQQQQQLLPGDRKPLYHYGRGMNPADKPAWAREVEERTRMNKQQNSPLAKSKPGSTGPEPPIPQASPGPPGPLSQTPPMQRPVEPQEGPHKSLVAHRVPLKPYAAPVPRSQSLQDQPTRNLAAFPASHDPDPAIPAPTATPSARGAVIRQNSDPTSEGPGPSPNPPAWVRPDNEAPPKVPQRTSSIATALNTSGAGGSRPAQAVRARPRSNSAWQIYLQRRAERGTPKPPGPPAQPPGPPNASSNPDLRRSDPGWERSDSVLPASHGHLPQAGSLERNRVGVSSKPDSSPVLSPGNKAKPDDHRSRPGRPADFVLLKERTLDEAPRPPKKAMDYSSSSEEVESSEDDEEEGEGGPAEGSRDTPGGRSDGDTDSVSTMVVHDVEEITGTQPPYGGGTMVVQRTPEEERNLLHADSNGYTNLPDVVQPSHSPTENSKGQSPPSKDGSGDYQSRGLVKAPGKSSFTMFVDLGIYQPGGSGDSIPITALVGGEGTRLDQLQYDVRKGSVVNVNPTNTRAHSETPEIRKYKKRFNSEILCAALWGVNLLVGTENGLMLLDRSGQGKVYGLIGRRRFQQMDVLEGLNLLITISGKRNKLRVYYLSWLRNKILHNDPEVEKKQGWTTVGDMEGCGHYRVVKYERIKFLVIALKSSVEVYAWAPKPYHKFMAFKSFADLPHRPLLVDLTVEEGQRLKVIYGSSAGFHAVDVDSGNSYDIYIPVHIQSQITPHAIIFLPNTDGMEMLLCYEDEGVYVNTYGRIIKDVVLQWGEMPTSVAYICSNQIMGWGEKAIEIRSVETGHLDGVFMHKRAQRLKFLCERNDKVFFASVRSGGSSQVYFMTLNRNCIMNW
Sequence of UniProt Q7KZI7 (whole entry, looked up): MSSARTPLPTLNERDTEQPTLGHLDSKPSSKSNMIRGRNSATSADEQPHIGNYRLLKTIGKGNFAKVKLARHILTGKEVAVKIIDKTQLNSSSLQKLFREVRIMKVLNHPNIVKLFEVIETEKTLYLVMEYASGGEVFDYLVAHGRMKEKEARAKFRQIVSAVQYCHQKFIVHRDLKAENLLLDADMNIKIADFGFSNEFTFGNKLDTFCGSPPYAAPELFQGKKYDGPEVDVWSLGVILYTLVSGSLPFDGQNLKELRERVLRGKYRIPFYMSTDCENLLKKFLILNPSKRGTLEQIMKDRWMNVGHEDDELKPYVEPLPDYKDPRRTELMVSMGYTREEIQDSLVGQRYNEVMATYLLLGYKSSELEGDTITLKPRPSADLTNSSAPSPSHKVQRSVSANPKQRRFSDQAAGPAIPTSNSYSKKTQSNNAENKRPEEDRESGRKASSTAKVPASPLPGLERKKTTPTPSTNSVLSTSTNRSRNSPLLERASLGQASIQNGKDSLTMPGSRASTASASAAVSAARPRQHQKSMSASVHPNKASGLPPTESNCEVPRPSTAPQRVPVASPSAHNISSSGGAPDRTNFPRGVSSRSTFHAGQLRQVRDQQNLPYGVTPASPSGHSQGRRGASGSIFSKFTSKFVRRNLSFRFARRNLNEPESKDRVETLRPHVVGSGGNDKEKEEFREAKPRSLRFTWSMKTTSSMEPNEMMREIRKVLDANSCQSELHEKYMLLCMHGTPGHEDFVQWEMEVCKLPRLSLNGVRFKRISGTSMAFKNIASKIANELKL
Sequence of UniProt Q7L7X3 (whole entry, looked up): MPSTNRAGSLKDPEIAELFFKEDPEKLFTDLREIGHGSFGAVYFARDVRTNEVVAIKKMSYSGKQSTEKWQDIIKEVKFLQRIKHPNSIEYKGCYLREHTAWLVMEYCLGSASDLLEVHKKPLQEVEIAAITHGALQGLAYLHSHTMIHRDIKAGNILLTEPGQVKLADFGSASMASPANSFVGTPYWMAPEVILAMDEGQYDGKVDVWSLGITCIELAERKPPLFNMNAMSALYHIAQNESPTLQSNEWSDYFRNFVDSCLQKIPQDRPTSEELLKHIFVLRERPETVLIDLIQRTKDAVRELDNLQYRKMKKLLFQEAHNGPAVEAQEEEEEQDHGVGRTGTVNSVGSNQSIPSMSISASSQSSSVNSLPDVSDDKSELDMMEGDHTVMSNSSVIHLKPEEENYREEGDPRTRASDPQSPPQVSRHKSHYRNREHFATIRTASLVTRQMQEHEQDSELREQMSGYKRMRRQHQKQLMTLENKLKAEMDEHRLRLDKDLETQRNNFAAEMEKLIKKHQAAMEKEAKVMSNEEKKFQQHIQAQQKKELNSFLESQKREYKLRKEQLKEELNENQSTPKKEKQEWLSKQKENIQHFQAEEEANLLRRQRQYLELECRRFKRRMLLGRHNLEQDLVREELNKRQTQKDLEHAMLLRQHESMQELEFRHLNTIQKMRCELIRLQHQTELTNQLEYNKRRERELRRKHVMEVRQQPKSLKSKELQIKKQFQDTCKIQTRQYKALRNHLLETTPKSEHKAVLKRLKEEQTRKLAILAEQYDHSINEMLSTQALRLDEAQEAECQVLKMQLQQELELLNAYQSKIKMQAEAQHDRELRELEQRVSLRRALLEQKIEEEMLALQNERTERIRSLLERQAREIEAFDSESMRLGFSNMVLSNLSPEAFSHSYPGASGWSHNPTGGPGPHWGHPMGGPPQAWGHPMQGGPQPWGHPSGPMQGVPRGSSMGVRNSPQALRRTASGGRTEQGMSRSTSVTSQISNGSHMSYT
Sequence of UniProt P49761 (whole entry, looked up): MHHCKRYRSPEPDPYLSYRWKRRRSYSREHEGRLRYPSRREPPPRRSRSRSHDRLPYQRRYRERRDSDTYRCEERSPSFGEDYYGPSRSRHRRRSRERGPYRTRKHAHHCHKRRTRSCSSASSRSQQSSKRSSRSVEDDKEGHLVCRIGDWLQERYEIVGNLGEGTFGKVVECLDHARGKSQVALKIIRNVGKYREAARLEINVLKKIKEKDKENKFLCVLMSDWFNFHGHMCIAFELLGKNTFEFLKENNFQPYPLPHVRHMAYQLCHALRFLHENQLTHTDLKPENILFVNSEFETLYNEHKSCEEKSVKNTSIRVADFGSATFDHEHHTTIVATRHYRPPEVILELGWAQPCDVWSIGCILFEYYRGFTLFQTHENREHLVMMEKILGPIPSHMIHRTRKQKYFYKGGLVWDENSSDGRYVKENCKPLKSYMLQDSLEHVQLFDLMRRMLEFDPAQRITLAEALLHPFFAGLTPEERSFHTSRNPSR

Block 1 — read-out: kinase activity
Compound: COc1cc(C(=O)N2CCC(N3CCN(C)CC3)CC2)ccc1Nc1ncc2c(n1)N(C)c1ccccc1C(=O)N2C
target	tested at	remaining activity [%]
BRSK1	1 µM	83 ± 6
PAK6	1 µM	94 ± 15
CAMK1	10 µM	43 ± 5
MKK1	1 µM	94 ± 3
PHK	1 µM	98 ± 3
RIPK2	10 µM	101 ± 9

Block 2 — method: competition with immobilised ligand; tested at: 1 µM
Structure (SMILES): CCc1ccccc1C(=O)Nc1n[nH]c2c(C)c(F)c(C3C(C#N)=C(C)N(C)C(C)=C3C#N)cc12
target	read-out	remaining binding [%]
Mitogen-activated protein kinase kinase kinase kinase 5 (MAP4K5, Homo sapiens, UniProt Q9Y4K4)	cell-free assay	100
Serine/threonine-protein kinase TAO1 (TAOK1, Homo sapiens, UniProt Q7L7X3)	cell-free assay	100
Cytoplasmic tyrosine-protein kinase BMX (BMX, Homo sapiens, UniProt P51813)	cell-free assay	96
Dual specificity protein kinase CLK4 (CLK4, Homo sapiens, UniProt Q9HAZ1)	cell-free assay	100
Phosphatidylinositol 4-phosphate 5-kinase type-1 gamma (PIP5K1C, Homo sapiens, UniProt O60331)	binding	56
Tyrosine-protein kinase ABL1, non-phosphorylated (ABL1, Homo sapiens, UniProt P00519, H396P)	cell-free assay	95

Block 3 — read-out: enzyme activity; action: inhibitor; tested at: 0.5 µM; baseline: control
SMILES: COc1ccc(S(=O)(=O)N(CCO)c2ccccc2CN(C)CC=Cc2ccc(Cl)cc2)cc1
target	remaining activity [%]
Discoidin domain-containing receptor 2 (DDR2, Homo sapiens, UniProt Q16832)	96.8
Vascular endothelial growth factor receptor 2 (KDR, Homo sapiens, UniProt P35968)	101
Serine/threonine-protein kinase MRCK beta (CDC42BPB, Homo sapiens, UniProt Q9Y5S2)	101
Rho-associated protein kinase 1 (ROCK1, Homo sapiens, UniProt Q13464)	99.7
Serine/threonine-protein kinase MARK2 (MARK2, Homo sapiens, UniProt Q7KZI7)	95.5
Cyclin-dependent kinase 9, with cyclin K (CDK9, Homo sapiens, UniProt P50750)	99.1
Serine/threonine-protein kinase Nek3 (NEK3, Homo sapiens, UniProt P51956)	96.2
Dual specificity protein kinase CLK3 (CLK3, Homo sapiens, UniProt P49761)	100
Misshapen-like kinase 1 (MINK1, Homo sapiens, UniProt Q8N4C8)	98.1
cGMP-dependent protein kinase 2 (PRKG2, Homo sapiens, UniProt Q13237)	104
Calcium/calmodulin-dependent protein kinase type IV (CAMK4, Homo sapiens, UniProt Q16566)	97.5
Mitogen-activated protein kinase 14 (MAPK14, Homo sapiens, UniProt Q16539)	95.1
Dual specificity mitogen-activated protein kinase kinase 1 (MAP2K1, Homo sapiens, UniProt Q02750)	94.3
Dual specificity protein kinase CLK4 (CLK4, Homo sapiens, UniProt Q9HAZ1)	96

Further values, each from its own experiment
Compound	assay	system	setting	scale	endpoint	result
CC(C)n1cnc(-c2ccc(F)cc2)c1-c1ncc(C(=O)Nc2ccc(N3CCN(C)CC3)cc2)[nH]1		human, idiopathic pulmonary fibrosis	30 mg twice daily, trial, without standard of care		serious treatment-related AEs	0%
CC(=O)N[C@@H](Cc1c[nH]c2ccccc12)C(=O)N[C@@H](CCC(=O)C=[N+]=[N-])C(=O)OC(C)C	UPLC-MS/MS	EL4 tumor, C57BL/6 CES1-/- mice, tumor	subcutaneous, 0.3 mg/kg DON equivalent daily, 5 days	higher = more metabolite	serine level	8.3e+08 a.u. and 9.2e+08 a.u. and 7.36e+08 a.u. and 9.41e+08 a.u. and 8.47e+08 a.u. and 6.39e+08 a.u.

Repeated from above (block 1):
target	tested at	remaining activity [%]
CAMK1	10 µM	43 ± 5
MKK1	1 µM	94 ± 3
